Assay results gathered from unrelated publications.
Every numbered part comes from another study and shows a few of its results, in no order. Positions count from the first letter of the parent shown.

Block 1
Target: UDP-N-acetylglucosamine--peptide N-acetylglucosaminyltransferase 110 kDa subunit (OGT, Homo sapiens, UniProt O15294)
Chain of UniProt O15294 (whole entry, looked up): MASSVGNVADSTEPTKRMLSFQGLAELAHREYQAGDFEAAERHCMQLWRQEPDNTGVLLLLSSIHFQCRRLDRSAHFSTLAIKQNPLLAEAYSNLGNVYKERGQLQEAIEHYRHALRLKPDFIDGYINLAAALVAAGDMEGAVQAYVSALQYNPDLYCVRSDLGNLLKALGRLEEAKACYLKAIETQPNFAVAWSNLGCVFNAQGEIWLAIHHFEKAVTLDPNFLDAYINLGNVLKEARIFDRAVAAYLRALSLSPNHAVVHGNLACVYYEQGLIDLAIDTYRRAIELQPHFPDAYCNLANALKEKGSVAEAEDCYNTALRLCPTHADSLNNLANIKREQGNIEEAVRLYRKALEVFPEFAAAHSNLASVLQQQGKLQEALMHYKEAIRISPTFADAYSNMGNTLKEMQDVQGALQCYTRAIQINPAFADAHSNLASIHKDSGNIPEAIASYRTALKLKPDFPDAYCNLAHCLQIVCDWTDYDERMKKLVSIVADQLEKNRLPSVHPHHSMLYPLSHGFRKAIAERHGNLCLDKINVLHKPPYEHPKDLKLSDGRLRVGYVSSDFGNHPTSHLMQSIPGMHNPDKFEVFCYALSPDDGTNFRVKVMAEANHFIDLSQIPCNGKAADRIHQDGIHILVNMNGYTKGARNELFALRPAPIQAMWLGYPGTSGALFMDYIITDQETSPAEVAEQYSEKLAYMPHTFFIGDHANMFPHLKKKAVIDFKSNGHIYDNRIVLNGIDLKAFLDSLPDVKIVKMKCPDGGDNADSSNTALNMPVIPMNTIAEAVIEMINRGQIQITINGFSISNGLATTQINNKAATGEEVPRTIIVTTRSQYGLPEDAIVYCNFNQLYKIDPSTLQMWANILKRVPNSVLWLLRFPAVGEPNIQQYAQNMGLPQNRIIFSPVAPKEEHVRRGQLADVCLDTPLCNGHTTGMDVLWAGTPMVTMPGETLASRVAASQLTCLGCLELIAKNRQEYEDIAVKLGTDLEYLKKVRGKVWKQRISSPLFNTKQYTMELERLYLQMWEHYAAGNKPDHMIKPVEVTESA
Observed: binding
Technique: phage display NGS
Molecule type: peptide
Concentration: concentration not given
Setting: panning round 2
Relative to: input library
Sequence	enrichment fold change
SSNEPHYPPKYQMVI	12.5
TWRHVVEANHVHMPK	12.4
ASWSRYHVHDHIHDF	5.19
EWLPMYQIQYVMYAT	6.62
GMRQPPYMPLYQIEV	22.1
HWPYHHALDQPQRQD	4.65
QFLPSYQIQVDLPHY	7.06
DEHMIPNHHHHFTIE	5.82

Block 2
Target: CCNF, cyclin fold, Cln2 fusion (human)
Technique: yeast growth competition, sequencing
Matrix: yeast
Setting: strong parent motif
Relative to: not given
Direction: higher = stronger binding
Starting sequence: viral docking peptide; KGVKRKLFAEDSS; partner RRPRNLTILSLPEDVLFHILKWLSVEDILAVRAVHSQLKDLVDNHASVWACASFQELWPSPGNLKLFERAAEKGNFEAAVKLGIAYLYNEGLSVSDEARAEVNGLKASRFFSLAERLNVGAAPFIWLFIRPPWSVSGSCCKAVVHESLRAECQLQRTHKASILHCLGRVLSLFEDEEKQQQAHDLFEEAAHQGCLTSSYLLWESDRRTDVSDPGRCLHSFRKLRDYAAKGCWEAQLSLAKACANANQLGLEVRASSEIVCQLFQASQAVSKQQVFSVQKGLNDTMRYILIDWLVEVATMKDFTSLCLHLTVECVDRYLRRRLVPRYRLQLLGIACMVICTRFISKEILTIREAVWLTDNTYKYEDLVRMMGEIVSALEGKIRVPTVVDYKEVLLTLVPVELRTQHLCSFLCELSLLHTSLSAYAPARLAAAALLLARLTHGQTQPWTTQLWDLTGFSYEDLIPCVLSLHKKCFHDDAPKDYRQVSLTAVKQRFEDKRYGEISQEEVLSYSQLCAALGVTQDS
Variant	normalised enrichment score
K4P	6.88
F8H	0.327
S12L	8.13
K6F	2.32
R5S	0.285
E10P	7.55
D11Q	7.64
V3D	0.334

Block 3
Target: tungstate, free oxyanion
Technique: microfluidic competitive inhibition
Matrix: in vitro, cell-free expressed
Concentration: not given
Setting: derived from inhibition constants, unchanged parent 2230 nM
Direction: lower = stronger binding
Starting sequence: PafA, mature enzyme, eGFP fusion (Elizabethkingia meningoseptica, UniProt Q9KJX5); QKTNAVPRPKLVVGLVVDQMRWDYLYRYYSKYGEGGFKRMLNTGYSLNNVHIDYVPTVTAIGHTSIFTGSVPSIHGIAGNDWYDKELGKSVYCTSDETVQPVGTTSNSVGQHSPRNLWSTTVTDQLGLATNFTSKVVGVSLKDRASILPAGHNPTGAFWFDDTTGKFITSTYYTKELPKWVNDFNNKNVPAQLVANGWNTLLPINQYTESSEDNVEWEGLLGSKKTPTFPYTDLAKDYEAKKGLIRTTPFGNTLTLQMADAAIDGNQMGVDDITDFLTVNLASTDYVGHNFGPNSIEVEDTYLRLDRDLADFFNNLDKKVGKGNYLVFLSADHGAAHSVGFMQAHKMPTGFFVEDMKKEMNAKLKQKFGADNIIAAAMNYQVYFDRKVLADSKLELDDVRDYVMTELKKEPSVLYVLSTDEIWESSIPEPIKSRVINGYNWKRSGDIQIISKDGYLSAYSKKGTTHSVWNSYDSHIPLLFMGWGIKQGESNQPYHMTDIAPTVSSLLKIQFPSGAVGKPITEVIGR
Variant	oxyanion analog dissociation constant [µM]
S295V	> 827
G103A	2.05
Q510V	2.32
K135V	2.25
L364V	2.8
K10G	2.03
V382G	2.26
V215A	1.97

Mixed results
Compound	organism	assay	system	conditions	quantity	result
CNC(=O)c1ccc(-c2cnn3ccc(C(=O)N(C)c4ccc(Cl)c(C(=O)OC)c4)cc23)cc1	Cryptosporidium parvum	qPCR	IFN-γ knockout mouse	1 mg/kg, day 3 post treatment	faecal oocyst shedding	6.41 log oocysts/g faeces

Repeated from above (block 2):
Variant	normalised enrichment score
K4P	6.88
E10P	7.55
